Published values collected from several papers.
Parts stem from different laboratories: compare values within a part only. Substitutions count along the parent as printed.

Sample 1 — method: Sort-seq; refers to: YFP reporter; matrix: E. coli; setting: PhoQ-PhoP variant library; with: 10 µM Mg2+; baseline: high Mg2+ state; reading: higher = stronger signaling; quantity: fold induction
Substance: PhoQ, residues 284 288 289 292 302 303 QWGLFV
PhoP, residues 12 14 15 18 19 NFFVT (Escherichia coli, UniProt P23836): 10.2
PhoP, residues 12 14 15 18 19 LHHYF (Escherichia coli, UniProt P23836): 11.4
PhoP, residues 12 14 15 18 19 TPWTL (Escherichia coli, UniProt P23836): 0.929
PhoP, residues 12 14 15 18 19 VGHWL (Escherichia coli, UniProt P23836): 9.84

Sample 2 — method: DHFR PCA, deep sequencing; matrix: yeast; with: (+)-ABA 0.0091 µM; baseline: wild-type fitted maximum; reading: higher = stronger binding; quantity: relative binding score
Target: ABI1, truncated, D143A, DHFR fusion (Arabidopsis thaliana)
Setting: methotrexate growth selection, single substitutions
Starting sequence: PYL1, truncated, DHFR fusion (Arabidopsis thaliana); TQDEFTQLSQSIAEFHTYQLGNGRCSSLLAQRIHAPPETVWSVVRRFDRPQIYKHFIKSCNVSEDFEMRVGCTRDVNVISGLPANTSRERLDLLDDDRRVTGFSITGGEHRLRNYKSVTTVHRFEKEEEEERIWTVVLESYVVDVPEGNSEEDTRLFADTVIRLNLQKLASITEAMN
E127M: 41.4%
Y141K: -3.53%
H122N: 9.68%
V78W: 92.8%
V40L: -1.51%
V161N: 22.7%
T6R: 51.1%
C60R: 2.05%
N61C: 31.1%
T106S: -2.07%
K58P: -8.66%
S63I: 5.99%
S59Y: 2.38%
V70I: 20.5%
R46Q: 55.2%
I12R: -4.06%
E67G: 4.89%
G21P: 4.13%
K54L: -0.376%
A35Q: -7.63%
K116A: 5.06%

Sample 3 — method: competition protein-binding microarray; form: double-stranded DNA, one strand shown; matrix: in vitro; tested at: 2 µM; with: Pho4 competitor, 0.05 µM; reading: higher = stronger binding; quantity: fluorescence intensity; constant ends, left off below: … GTCTTGATTCGCTTGACGCTGCTG
Target: Centromere-binding protein 1, full length, His-tagged (CBF1, Saccharomyces cerevisiae, UniProt P17106, residues 1-351)
Chain of UniProt P17106 (whole entry, looked up): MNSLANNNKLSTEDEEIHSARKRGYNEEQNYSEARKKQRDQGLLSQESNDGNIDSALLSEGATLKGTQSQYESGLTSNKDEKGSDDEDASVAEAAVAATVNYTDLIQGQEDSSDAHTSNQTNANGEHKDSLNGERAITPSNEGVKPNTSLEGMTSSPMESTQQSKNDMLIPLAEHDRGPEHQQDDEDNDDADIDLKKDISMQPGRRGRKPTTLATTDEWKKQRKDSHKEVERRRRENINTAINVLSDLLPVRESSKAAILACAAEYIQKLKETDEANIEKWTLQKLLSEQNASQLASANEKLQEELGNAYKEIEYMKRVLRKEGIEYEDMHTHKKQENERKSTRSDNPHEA
Setting: whole 60-bp probe, lowest competitor level
TAAAGGGACCGCTACCACATGGACAAGGAAATTTGC: 73.3 a.u.
AAGAAACATACCCATCACGTGACGGCAAGAATGTTA: 12400 a.u.
GCAACACTAGAGTCCCACGTGGAAGCTGGGGTACCC: 341 a.u.
TTATCAGTGCTAAAGCACGATCCAAGTGGTGGCACA: 69.1 a.u.
TATGGCGAGCCACATCATGTGATTGCCGTTGAGGTT: 967 a.u.
CACAATGAAAAGGTCCACGTGGTGGGGACTGAGGCC: 1020 a.u.
CATACCCAACCTTGACGGGTGGGTGAAGATATTTGT: 66.2 a.u.
GGTTTCTTATCAAGTGGCGTGCCAGGGCATCTACCA: 109 a.u.
CTAACGAAGGTTTTTCACGTGCGTTACAAGCCAAGT: 732 a.u.
TGCGCAACAACTTGTGTTGTGGGTGTATGTCTAGAA: 65.9 a.u.
CGTCCTAGTGATTGTCACAGAACTTCCATGAGGAAG: 79 a.u.
AAAAGTGGGAGCTCATTCGTGATGGGGAAGCAGAGA: 72 a.u.
CTTCTGTAAATTTGAGATGTGGGTGGACGCGCCCCG: 91.1 a.u.
CGGGGTTAAGTTTGTCACGTGACTTGCTTGCAGCAG: 30400 a.u.
TAGGTTTTATCCTGGCACGCTGTCTAGCTTTCAAAC: 78 a.u.
TTGTCTGTGCATTGGCATGCGCAAGCATTCGATGAA: 67 a.u.
GGCACTAGTTTGTGTCCCGTGGTGATTGCTGTATAA: 225 a.u.
GTCTTGTCTCATTGTCACATTACTTTCCCCACTTCA: 122 a.u.
GAACAAGATTTTTTGCACGTGGTGAGGATGATGAGG: 1830 a.u.

Sample 4 — target: CCNB3, cyclin fold, Cln2 fusion (human); method: yeast growth competition, sequencing; matrix: yeast; setting: weak parent motif; baseline: not given; reading: higher = stronger binding; quantity: normalised enrichment score
Starting sequence: CCP110 docking peptide (human); EKVKRRLDLDIDG
EKVARRLDLDIDG [K4A]: -0.0222
AKVKRRLDLDIDG [E1A]: 0.255
EKVKRRLDLDIAG [D12A]: 0.514
EKVKKRLDFDIDG [R5K L9F]: 1.46
EKVKRRLDLDADG [I11A]: 0.223
EKAKRRLDLDIDG [V3A]: 0.138
EKVKRRADLDIDG [L7A]: -0.473

Excerpt of the above (sample 2):
K58P: -8.66%
S63I: 5.99%
S59Y: 2.38%
V70I: 20.5%
